Experimental data from different studies.
Numbered parts are unrelated; each lists some results of a single study. Changes are numbered by the printed parent chain.

Block 1
Target: Interferon regulatory factor 5, full length, phosphomimetic (IRF5, Homo sapiens, UniProt Q13568-2, residues 1-514, K96S/S451D/S453D/S456D/S462D)
Technique: protein-binding microarray
Molecule type: double-stranded DNA, one strand shown
Sample: in vitro
Concentration: 250 nM
Setting: 60-bp whole probe
Together with: salmon DNA 0.4 mg/ml
Relative to: random background probes
Direction: higher = stronger binding
All sequences stand within: GCCTAGCAC … GTCTTGATTCGCTTGACGCTGCTG
| Oligonucleotide | log fluorescence |
| --- | --- |
| GACGAAGTGAGTTTCGAGACGTGCTAG | 4.79 z-score |
| GACGGTATCGGGATTGGGGACGTGCTA | 1.45 z-score |
| TTTCCCATGAGTCTCAATATGTGCTAG | 1.83 z-score |
| GAAGAACTGAGTATCGAGACGTGCTAG | 2.03 z-score |
| GACGAACTGGGTATCGGGACGTGCTAG | 0.526 z-score |
| TTAGATTTCGGGGATCGATTAGTGCTA | 2.8 z-score |
| CGGAATTTCCCTCTGCTCCTGTGCTAG | 0.714 z-score |
| TTAGGTTTTGGTATCGGTTAGTGCTAG | 8.43 z-score |
| GAAGGTTTCGGACTGGGGACGTGCTAG | 3.44 z-score |
| TTTGGTTTCGGGACTGGGTTAGTGCTA | 8.04 z-score |
| TTAGGTTTCTGTTCCGGTTAGTGCTAG | 5.94 z-score |
| TTAGGTTTTCTTTTCCTTTAGTGCTAG | 1.33 z-score |
| TTAGCTATCAGACTGGATTAGTGCTAG | 0.389 z-score |
| GACGGACTGGGGTATCGGGGCGTGCTA | -0.12 z-score |
| GACGGTTCCGGTTTCCGGACGTGCTAG | 1.19 z-score |
| TTAGATATCAGTCTCCATTAGTGCTAG | 1.14 z-score |
| TTATCAATCATTTTCGTTTTGTGCTAG | 5.05 z-score |
| GTCGAACTGAGACTGGAGACGTGCTAG | -0.421 z-score |
| TGTAGCTGGAGAAGTAAAACGTGCTAG | -0.253 z-score |
| TTAGGACGGGACTTTCGGTTAGTGCTA | 9.74 z-score |
| TTAGGTTTCGACACTGGTTTAGTGCTA | 6.26 z-score |
| TCAAAAATGAATATTAGACTGTGCTAG | 0.209 z-score |
| GACGTTTTCGACTATCGGGACGTGCTA | 4.92 z-score |
| TTAGGTTTCGGGTAACGGTTAGTGCTA | 8.85 z-score |
| TTAGGTTTCAGTTTCGGTTAGTGCTAG | 11 z-score |

Block 2
Target: RING finger protein unkempt homolog, zinc fingers 1-6, GST-SBP tag (UNK, Homo sapiens, UniProt Q9C0B0, residues 30-357)
Sequence of UniProt Q9C0B0 (30-357, looked up): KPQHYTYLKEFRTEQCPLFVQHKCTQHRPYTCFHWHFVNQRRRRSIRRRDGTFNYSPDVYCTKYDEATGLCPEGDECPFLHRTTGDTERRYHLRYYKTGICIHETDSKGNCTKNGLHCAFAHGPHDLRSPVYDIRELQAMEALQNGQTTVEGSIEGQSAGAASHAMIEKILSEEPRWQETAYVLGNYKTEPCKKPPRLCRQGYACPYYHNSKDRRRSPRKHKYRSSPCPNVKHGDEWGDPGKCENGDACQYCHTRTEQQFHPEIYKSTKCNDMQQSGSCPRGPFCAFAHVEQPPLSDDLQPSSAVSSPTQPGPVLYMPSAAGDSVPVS
Technique: RNA Bind-n-Seq
Molecule type: RNA
Sample: in vitro
Concentration: not given
Setting: RNA with constant flanks, human-mouse chimeric sites, ends assumed
Relative to: input RNA pool
Direction: higher = stronger binding
All sequences stand within: GGGAGUUCUACAGUCCGACGAUC … CAACAGAGGAUUGAGCAUCA
| Oligonucleotide | bound/input enrichment |
| --- | --- |
| AAAGCCCUUGAAGAAAAAAAAAACUCGAACAGAUUUGACAAGGGUAGCCAGCUUGGAGUCUAGCAACUUGCCAAUGUUGCUUACCAACUGGGGGCUUGUUUUUCUUUUCUUCUUUCAAAU | 0.285 ratio |
| AGAUUCCCCCUCCUGAGACCUCCUCCGAAGUUGGAGUCUCUUACAGAUGCCUCAUCCCCUGUUAGCGUUUUAGUUUGGACCACCCAGCCUUGGACAAUUCCAGCCAAUGAAGCUGUUUGC | 1.05 ratio |
| GAACCUGCUCUCUCUGAUGAAGAUGAGGAAGACAAUGAUGAUGUUGAACCUAUUACUGAAUUUCGAUUUGUGCCCAGUGAUAAGUCAGCAUUGGAGGCGAUGUUCACAGCAAUGUGUGAG | 0.205 ratio |
| CAGGGCAUCAUCUCUCGAGCUGUUAAACACCUUUUUAAGAGUAUUGAUGAGAAAAAGACCUCAGCGAUUAAAAACGGGCUGCCCCCUCCUGAAUUCAAAGUGAAUGCCCAGUUCCUAGAG | 0.632 ratio |
| ACAGUUAUAUUGUUGAGUUUCAUUUUCUUGUAUGUUUGUAGUGUCUGCUUGCCUGUGACUUCUGGUAAAAUAAAAUAAGCCUUUGAAAAUAUUUUAGAUUUAACAUUAACAUUUUCUAAA | 2.99 ratio |
| GCGGCAGAAUCAUGGUGGACAUAAUGCAGCUCCCCAAAGCGCGCGUCAACGCCAGCAUGUUACCACAGUAUAUCGACCGGCCCGUGUGCUUCGUGGGGAAGCUGGAAAAGAUUCAUCCCA | 0.113 ratio |
| UUGCUACUAACUCCAUGGGUCAAGUUCCUGUGGGAAUCAUACAGGCAGUGUUUGGACCUUCUUCGAAACAAUUCUAGAGUAGAGCGCCUUUACCAUGAUAUCGCCCAGCAAGCUUUCAAA | 0.214 ratio |
| GAUAAGAAAAGCUUGUUGGAGACCCGCUUGCAUGUCACUGGUAGAGACCUGAGGUGUCAAAUAGCUGAAACCUUUGGAUUUCAAGAAAAUUAUAUCAAGAUCGUAAUAAAUAAGAAACAG | 0.675 ratio |
| CUUAAUGUUAAUAUUUUUAAAGGAAGCAAGCUAAAAUGUCUGCUUUUGGUACAACACGCAUUAGCGAAAGGUUAAGUUUUGUUUUCCACUGAAGUACUAUUUAACAUCUCAGAAAAAAAC | 0.328 ratio |
| AAAGAGUGGAUAGAGUGUGCACACGGGAUCGGUGGGACCCGGGCGAAAAAGGAGUGCAAGAUAGAGUAUGAUGAUUUCGAAGAGUGCUUGCUUCGGUACAAAACGAUGAGACGUGCACAU | 0.671 ratio |
| CACUCGAGGGCUGCCGUUUUCUGUUUCUCCCUGGGCUGCGGAAAGCCAGAAGAUUUUAUCUAGCUUAUACAAGGCUGCUGGUGUUCCCUCCCUCCCGCCACGAGGGUGUUUUUGGCUGCA | 0.312 ratio |

Block 3
Target: Histone acetyltransferase KAT6A, winged helix 1, GST fusion (KAT6A, Homo sapiens, UniProt Q92794, residues 1-85)
Technique: protein binding microarray
Molecule type: double-stranded DNA, one strand shown
Sample: in vitro
Concentration: not given
Setting: 8-mer, flanks averaged, mean of 2 arrays, mostly near background
Relative to: not given
Direction: higher = stronger binding
Residues (chain): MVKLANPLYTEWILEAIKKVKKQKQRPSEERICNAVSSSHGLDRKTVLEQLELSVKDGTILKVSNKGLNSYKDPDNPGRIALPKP
| Oligonucleotide | E-score |
| --- | --- |
| TGCGCCAA | 0.153 |
| GAGCAGGC | 0.0336 |
| CGTCACGC | 0.273 |
| ATTCATCA | -0.156 |
| TCGGACGA | 0.0092 |
| ATTTCTCG | -0.107 |
| GGAAGCGA | 0.0834 |
| ACGTCAAA | -0.0172 |
| GGTCCTGA | -0.0238 |
| CAAGCGAA | -0.0806 |
| ACCCTACA | -0.308 |
| CCTGTACC | -0.125 |
| CTCCGCAA | 0.0667 |
| ATTTGAAC | -0.0562 |
| AAGCGCAT | 0.229 |
| ATCTCGTA | -0.167 |
| GGTAGTTA | -0.00808 |
| GAGTGTAA | -0.154 |
| TCTGCGCA | 0.196 |
| CTTTTTAC | -0.0743 |
| GACGATGC | 0.0573 |
| ATAATTTG | -0.0582 |
| GGGAGTCA | -0.0503 |
| CCTATGCG | 0.133 |
| GGTGCGAC | 0.267 |

Block 4
Target: Sal-like protein 4, full length isoform A (SALL4, Homo sapiens, UniProt Q9UJQ4, residues 1-1053)
Sequence of UniProt Q9UJQ4 (whole entry, looked up): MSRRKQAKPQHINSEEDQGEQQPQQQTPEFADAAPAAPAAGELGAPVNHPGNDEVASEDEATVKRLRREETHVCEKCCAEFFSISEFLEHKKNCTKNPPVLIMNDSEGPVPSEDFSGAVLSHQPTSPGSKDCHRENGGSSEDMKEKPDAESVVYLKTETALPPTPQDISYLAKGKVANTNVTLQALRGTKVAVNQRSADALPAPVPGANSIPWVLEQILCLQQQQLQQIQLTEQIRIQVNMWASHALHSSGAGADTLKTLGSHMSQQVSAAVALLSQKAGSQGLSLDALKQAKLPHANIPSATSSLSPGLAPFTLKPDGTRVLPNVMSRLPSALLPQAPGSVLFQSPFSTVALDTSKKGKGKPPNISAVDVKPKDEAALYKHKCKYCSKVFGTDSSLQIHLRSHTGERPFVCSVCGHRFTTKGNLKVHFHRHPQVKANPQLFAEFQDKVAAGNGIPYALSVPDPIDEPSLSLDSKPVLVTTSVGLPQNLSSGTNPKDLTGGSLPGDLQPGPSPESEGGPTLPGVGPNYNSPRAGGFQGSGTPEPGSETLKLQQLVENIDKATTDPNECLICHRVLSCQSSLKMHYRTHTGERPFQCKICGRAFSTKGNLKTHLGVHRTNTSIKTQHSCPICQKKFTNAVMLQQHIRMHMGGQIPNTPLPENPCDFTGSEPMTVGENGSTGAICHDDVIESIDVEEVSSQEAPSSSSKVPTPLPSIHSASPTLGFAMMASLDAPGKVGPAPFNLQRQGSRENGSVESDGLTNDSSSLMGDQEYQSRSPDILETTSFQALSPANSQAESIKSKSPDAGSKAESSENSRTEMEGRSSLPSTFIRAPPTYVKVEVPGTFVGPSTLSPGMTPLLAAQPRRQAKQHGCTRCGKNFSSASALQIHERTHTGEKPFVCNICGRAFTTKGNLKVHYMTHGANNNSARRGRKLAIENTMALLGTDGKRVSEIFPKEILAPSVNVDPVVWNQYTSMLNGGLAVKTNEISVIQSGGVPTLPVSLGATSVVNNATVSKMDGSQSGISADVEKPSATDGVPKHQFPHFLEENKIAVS
Technique: universal PBM
Molecule type: double-stranded DNA, one strand shown
Sample: in vitro
Concentration: 600 nM
Setting: 8-mer, flanks averaged, mean of replicates
Direction: higher = stronger binding
| Oligonucleotide | E-score |
| --- | --- |
| AACCCTAT | 0.0398 |
| CTTGGGCC | -0.318 |
| AAGTCTCG | -0.139 |
| AAGTACAG | 0.116 |
| AGTAGTTC | 0.0486 |
| ACATGGTG | 0.0606 |
| CATCATCC | -0.0593 |
| AGTTCTAA | 0.111 |
| AAAACACC | -0.0461 |
| AGACGGCG | -0.282 |
| CGGTCAAG | -0.204 |
| AGACTCAC | -0.208 |
| CGGGACAA | -0.0765 |
| CCGTAGTA | -0.00982 |
| ATTTATCA | 0.299 |
| ATTTATCG | 0.248 |
| CGGCCCAC | -0.337 |
| GAGCTGAC | -0.209 |
| AGGCCCCC | -0.446 |
| CTGAACGC | -0.22 |
| ATACCCCG | -0.187 |
| AGGTTGAG | -0.0885 |
| TGATCTAA | 0.223 |
| GATGATGC | -0.0396 |

Block 5
Target: ABI1, truncated, D143A, DHFR fusion (Arabidopsis thaliana)
Technique: DHFR PCA, deep sequencing
Sample: yeast
Setting: methotrexate growth selection, single substitutions
Together with: (+)-ABA 17 µM
Relative to: wild-type fitted maximum
Direction: higher = stronger binding
Parent: PYL1, truncated, DHFR fusion (Arabidopsis thaliana); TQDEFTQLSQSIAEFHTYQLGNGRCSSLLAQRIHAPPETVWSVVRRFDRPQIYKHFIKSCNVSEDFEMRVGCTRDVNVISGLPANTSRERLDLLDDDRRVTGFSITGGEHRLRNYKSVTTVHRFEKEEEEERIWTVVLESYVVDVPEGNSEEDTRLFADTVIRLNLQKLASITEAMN; partner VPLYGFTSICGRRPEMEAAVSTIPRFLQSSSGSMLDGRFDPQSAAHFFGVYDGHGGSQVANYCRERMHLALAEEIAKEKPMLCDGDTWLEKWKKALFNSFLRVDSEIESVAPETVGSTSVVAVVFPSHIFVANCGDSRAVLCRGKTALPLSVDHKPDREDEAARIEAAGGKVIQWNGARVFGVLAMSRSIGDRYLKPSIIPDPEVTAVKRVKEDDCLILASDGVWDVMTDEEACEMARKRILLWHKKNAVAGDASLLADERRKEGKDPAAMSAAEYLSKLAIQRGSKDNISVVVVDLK
| Substitution | relative binding score |
| --- | --- |
| R74T | -12.9% |
| H122S | 23.2% |
| C60G | -0.767% |
| P146H | 0.137% |
| T1A | 85.6% |
| E127G | 92.9% |
| H110S | 18.4% |
| T120S | 104% |
| R24K | 87% |
| K126G | 95.2% |
| N61D | 83.5% |
| V44K | -11.2% |
| F66P | 46.5% |
| R49S | 77.7% |

Some of these lines once more (block 3):
| Oligonucleotide | E-score |
| --- | --- |
| TCGGACGA | 0.0092 |
| ATTTGAAC | -0.0562 |
| GACGATGC | 0.0573 |
| GGGAGTCA | -0.0503 |
| ATTTCTCG | -0.107 |
| CCTATGCG | 0.133 |
| CAAGCGAA | -0.0806 |
| CCTGTACC | -0.125 |
| ACCCTACA | -0.308 |
| CGTCACGC | 0.273 |
| ATAATTTG | -0.0582 |
| ACGTCAAA | -0.0172 |
| ATTCATCA | -0.156 |
